Experimental data gathered from unrelated publications.
Numbers after ± are the reported error.
Mitogen-activated protein kinase 14: Mitogen-activated protein kinase 14 (Rattus norvegicus, UniProt P70618)
Chain of UniProt P70618 (whole entry, looked up): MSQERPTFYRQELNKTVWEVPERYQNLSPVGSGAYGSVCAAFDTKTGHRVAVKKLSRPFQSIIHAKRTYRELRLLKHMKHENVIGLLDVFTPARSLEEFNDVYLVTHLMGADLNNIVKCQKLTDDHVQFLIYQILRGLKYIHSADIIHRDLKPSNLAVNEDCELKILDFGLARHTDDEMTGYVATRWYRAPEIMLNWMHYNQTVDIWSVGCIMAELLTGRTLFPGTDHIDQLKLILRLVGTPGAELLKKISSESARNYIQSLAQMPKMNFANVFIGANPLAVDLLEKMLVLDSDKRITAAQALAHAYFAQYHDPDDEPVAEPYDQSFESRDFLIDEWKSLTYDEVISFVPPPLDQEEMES
CA2: Carbonic anhydrase 2 (CA2, Homo sapiens, UniProt P00918)
CTSL: Procathepsin L (CTSL, Homo sapiens, UniProt P07711)
Chain of UniProt P07711 (whole entry, looked up): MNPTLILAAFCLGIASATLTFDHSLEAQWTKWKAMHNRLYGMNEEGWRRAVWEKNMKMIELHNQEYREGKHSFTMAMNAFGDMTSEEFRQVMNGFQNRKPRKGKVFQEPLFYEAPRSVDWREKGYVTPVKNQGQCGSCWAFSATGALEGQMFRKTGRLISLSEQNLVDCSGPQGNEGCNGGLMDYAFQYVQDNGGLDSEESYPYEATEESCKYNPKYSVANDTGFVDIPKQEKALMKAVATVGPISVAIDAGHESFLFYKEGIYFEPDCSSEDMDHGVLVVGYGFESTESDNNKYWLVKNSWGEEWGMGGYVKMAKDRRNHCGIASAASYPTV
Chain of UniProt Q12809 (whole entry, looked up): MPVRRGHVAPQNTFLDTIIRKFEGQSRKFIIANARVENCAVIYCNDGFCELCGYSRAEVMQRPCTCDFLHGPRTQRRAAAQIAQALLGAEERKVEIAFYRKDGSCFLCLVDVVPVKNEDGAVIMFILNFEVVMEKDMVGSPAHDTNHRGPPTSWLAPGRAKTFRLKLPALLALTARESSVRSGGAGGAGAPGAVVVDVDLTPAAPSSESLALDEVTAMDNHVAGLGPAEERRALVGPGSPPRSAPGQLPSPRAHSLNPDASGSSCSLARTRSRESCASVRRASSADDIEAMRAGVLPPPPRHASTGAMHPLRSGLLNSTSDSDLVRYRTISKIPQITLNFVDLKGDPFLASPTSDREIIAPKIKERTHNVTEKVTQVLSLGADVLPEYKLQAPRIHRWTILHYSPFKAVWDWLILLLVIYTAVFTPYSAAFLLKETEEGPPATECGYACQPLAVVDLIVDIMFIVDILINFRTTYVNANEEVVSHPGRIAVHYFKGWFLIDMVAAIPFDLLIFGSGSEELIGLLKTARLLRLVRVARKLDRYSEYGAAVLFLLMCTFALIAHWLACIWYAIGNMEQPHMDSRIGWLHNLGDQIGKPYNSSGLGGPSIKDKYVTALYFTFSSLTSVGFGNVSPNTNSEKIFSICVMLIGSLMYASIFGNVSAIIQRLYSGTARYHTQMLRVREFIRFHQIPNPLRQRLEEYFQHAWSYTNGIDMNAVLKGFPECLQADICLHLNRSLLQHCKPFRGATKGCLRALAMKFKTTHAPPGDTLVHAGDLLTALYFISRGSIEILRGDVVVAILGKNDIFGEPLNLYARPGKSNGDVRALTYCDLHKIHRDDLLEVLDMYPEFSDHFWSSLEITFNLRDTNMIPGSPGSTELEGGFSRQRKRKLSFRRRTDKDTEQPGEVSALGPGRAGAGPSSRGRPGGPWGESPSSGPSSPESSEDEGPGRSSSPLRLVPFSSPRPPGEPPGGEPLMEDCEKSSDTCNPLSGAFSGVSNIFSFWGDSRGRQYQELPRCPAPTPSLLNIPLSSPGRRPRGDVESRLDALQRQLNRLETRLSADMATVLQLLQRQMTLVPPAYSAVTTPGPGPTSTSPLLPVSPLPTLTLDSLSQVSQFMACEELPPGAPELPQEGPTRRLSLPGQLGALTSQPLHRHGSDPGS
Chain of UniProt P14618 (whole entry, looked up): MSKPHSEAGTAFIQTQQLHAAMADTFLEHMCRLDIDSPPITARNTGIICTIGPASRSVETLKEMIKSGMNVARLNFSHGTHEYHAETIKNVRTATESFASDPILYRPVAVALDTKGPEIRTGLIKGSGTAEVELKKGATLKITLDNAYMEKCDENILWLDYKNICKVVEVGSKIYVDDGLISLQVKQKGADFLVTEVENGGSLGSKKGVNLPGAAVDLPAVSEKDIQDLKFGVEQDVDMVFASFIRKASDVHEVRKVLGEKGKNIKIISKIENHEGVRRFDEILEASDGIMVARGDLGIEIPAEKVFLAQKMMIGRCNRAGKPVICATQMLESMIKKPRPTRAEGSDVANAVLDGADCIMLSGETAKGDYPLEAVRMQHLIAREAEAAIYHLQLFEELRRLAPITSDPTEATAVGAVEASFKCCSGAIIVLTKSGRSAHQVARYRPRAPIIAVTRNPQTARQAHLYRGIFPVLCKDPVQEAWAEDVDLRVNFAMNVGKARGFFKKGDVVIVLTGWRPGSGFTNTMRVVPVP
Chain of UniProt O95931 (whole entry, looked up): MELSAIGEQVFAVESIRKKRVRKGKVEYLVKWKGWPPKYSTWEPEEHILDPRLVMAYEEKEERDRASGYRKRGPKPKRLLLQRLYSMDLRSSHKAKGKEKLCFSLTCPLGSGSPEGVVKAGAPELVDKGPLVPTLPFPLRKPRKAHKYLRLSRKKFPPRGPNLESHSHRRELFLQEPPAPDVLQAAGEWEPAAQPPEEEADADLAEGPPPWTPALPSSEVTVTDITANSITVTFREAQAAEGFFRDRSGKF
Chain of UniProt P25084 (whole entry, looked up): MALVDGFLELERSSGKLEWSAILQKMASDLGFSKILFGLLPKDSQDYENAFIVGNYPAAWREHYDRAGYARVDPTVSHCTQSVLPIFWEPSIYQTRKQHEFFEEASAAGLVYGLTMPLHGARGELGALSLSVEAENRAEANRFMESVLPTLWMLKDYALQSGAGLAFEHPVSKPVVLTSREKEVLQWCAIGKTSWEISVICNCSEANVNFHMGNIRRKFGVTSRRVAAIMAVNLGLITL
Chain of UniProt P10635 (whole entry, looked up): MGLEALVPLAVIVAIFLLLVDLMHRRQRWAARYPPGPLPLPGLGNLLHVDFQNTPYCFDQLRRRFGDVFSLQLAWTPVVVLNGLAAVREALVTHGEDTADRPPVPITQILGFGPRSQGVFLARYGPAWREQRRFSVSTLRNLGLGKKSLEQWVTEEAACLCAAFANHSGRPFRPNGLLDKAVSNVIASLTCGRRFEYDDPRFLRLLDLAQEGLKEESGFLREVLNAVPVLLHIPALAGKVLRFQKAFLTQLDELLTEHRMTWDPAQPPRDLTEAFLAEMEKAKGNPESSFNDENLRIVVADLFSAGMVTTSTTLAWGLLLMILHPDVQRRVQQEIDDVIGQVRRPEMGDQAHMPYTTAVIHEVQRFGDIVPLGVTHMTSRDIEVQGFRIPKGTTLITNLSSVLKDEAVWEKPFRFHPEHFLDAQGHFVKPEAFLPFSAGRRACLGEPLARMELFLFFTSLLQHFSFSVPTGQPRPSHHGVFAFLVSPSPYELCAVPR
Chain of UniProt P30411 (whole entry, looked up): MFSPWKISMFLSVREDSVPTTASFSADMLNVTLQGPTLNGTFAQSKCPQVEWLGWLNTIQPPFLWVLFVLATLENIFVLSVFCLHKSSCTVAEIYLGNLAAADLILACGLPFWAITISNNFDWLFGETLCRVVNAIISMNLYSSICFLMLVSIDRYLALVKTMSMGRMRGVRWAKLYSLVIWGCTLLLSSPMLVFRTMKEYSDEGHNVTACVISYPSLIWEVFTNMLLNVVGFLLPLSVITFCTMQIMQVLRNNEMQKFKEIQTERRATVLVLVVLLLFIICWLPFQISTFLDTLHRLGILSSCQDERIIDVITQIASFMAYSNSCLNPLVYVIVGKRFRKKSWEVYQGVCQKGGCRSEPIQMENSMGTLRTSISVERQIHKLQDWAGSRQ
Chain of UniProt Q14790 (whole entry, looked up): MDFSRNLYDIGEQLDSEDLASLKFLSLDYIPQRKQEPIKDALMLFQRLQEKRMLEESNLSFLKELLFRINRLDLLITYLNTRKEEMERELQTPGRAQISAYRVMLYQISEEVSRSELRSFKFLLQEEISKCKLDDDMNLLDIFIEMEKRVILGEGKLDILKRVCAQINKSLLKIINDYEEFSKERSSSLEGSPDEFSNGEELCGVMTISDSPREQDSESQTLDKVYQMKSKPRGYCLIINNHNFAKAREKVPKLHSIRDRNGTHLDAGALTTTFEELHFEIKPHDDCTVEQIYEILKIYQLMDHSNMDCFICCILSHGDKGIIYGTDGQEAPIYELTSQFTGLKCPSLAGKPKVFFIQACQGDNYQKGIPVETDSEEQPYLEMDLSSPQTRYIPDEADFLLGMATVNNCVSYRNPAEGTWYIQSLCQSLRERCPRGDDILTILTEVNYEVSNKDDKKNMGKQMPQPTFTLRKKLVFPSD
Chain of UniProt Q9UQ49 (whole entry, looked up): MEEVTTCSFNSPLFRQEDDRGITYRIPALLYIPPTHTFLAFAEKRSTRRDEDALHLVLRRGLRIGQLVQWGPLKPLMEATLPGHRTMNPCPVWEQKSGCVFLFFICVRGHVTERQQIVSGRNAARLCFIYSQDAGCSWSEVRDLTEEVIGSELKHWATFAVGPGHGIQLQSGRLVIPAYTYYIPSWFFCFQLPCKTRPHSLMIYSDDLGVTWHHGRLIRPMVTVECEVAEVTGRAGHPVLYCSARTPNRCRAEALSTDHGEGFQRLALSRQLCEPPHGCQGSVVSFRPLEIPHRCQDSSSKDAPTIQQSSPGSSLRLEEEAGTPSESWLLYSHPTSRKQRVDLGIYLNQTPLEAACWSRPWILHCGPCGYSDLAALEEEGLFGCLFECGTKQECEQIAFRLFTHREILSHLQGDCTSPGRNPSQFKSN

Compound	target or system	assay	test system	setting	endpoint	value
CC(C)C[C@H](NC(=O)CNC(=O)[C@H](CCCNC(=N)N)NC(=O)[C@H](CCCNC(=N)N)NC(=O)[C@H](C)NC(=O)[C@H](CS)NC(=O)[C@H](CC(C)C)NC(=O)[C@H](C)NC(=O)[C@@H](N)Cc1ccc(O)cc1)C(=O)N[C@@H](Cc1ccc(O)cc1)C(=O)N[C@@H](CS)C(=O)N[C@@H](CC(C)C)C(=O)N[C@@H](CO)C(=O)N[C@@H](CC(C)C)C(=O)N[C@@H](CC(=O)O)C(=O)N[C@@H](Cc1c[nH]cn1)C(=O)O	Mitogen-activated protein kinase 14	enzyme activity, inhibitor, fluorescence		pH 7.4	IC50	49.2 µM
O=C(O)C1=C[C@H](O)[C@@H](NC(=O)c2ccc(-c3ccccc3)cc2)[C@H]([C@H](O)[C@H](O)CO)O1	Sialidase-3 (Homo sapiens, UniProt Q9UQ49)	enzyme activity, inhibitor			IC50	> 500 µM
CC[C@H](C)[C@H](NC(=O)[C@H](CCCNC(=N)N)NC(=O)[C@H](CCCNC(=N)N)NC(=O)[C@H](CC(C)C)NC(=O)[C@@H](N)Cc1ccccc1)C(=O)N[C@@H](CCCNC(=N)N)C(=O)N1CCC[C@H]1C(=O)N[C@@H](CCCCN)C(=O)N[C@@H](CC(C)C)C(=O)N[C@@H](CCCCN)C(=O)O	BDKRB2 (Homo sapiens, UniProt P30411)	ligand displacement, radioligand		pH 6.8	IC50	2.6 µM
CC(C)CN(CCCC[C@H](NC(=O)[C@H](CCCN1CCOCC1)NC(=O)[C@@H](NC(=O)[C@H](Cc1ccccc1)NC(=O)c1ccc(C(C)(C)C)cc1)C(C)C)C(=O)N[C@@H](CO)C(N)=O)C1CC2CCC1C2 (stereo partly drawn)	Chromobox protein homolog 7 (Homo sapiens, UniProt O95931)	ligand displacement, TR-FRET			IC50	1.7 µM
O=S(=O)(N/N=C/c1ccc(OS(=O)(=O)c2ccccc2)cc1)c1cc(Cl)ccc1Cl	CA2	enzyme activity, inhibitor, absorbance			IC50	0.0488 µM
Cc1ccc(CNC(=O)c2ccn3c(-c4ccc(C#N)cc4)cnc3c2)cn1	Cytochrome P450 2D6 (CYP2D6, Homo sapiens, UniProt P10635)	enzyme activity, inhibitor			IC50	> 10 µM
CC[C@H](C)[C@H](NC(=O)[C@H](CC(C)C)NC(=O)[C@H](C)NC(=O)[C@H](CCC(=O)O)NC(=O)[C@H](C)NC(=O)[C@H](CCCNC(=N)N)NC(=O)[C@@H]1CCCN1C(=O)[C@H](CCCNC(=N)N)NC(=O)[C@H](CCC(N)=O)NC(=O)[C@H](CCCCN)NC(=O)[C@@H]1CCCN1C(=O)[C@H](C)NC(=O)[C@@H](N)Cc1ccc(O)cc1)C(=O)N[C@H](C(=O)N1CCC[C@H]1C(=O)N[C@H](C(=O)O)[C@@H](C)O)[C@@H](C)CC	Mitogen-activated protein kinase 14	enzyme activity, inhibitor, fluorescence		pH 7.4	IC50	391 µM
O=C(O)CCn1c(=O)oc2cc(Cl)c(Cl)cc21	KCNH2 (Homo sapiens, UniProt Q12809)	ion current, inhibitor			IC50	> 63.1 µM
C=CC(=O)Nc1cc(-c2nn(C3CCC(N4CCN(C(C)=O)CC4)CC3)c3ncnc(N)c23)ccc1Oc1ccccc1 (stereo not drawn)	EGFR (Homo sapiens, UniProt P00533)	enzyme activity, inhibitor, FRET			IC50	5.6 µM
CN(C)CCCN1C(=O)CSC1c1ccc(Cl)cc1 (stereo not drawn)	uncharacterized protein (Apis mellifera, UniProt A0A7M6W5G5)	enzyme activity, inhibitor, Ellman		together with: 1 mM acetylthiocholine	IC50	4.5 µM
CSCC[C@H](NC(=O)[C@H](CC(C)C)NC(=O)[C@H](C)NC(=O)[C@@H](N)Cc1ccc(O)cc1)C(=O)N[C@@H](CCC(=O)O)C(=O)N[C@@H](CCCNC(=N)N)C(=O)N[C@@H](CCCNC(=N)N)C(=O)N[C@@H](CCCNC(=N)N)C(=O)N[C@@H](CC(C)C)C(=O)N[C@@H](CC(N)=O)C(=O)N[C@@H](CCC(N)=O)C(=O)N[C@@H](CC(C)C)C(=O)N[C@@H](CC(C)C)C(=O)N[C@@H](CC(C)C)C(=O)N1CCC[C@H]1C(=O)N[C@@H](CC(C)C)C(=O)O	Mitogen-activated protein kinase 14	enzyme activity, inhibitor, fluorescence		pH 7.4	IC50	> 200 µM
Cc1ccc(-c2csc(NN=C(C=Cc3ccc(Cl)cc3)C(=O)O)n2)cc1	Cholinesterase (BCHE, Equus caballus, UniProt P81908)	enzyme activity, inhibitor			IC50	4.07 µM
CC(C)C[C@H](NC(=O)[C@H](CCC(=O)O)NC(=O)[C@H](CO)NC(=O)[C@@H](NC(=O)[C@H](C)NC(=O)[C@H](Cc1ccc(O)cc1)NC(=O)[C@@H]1CCCN1C(=O)[C@H](CCC(N)=O)NC(=O)[C@H](CCCNC(=N)N)NC(=O)[C@@H](N)CC(N)=O)C(C)C)C(=O)O	MHC-I ELA-A9, horse	binding, competitive radioligand binding		pH 7	IC50	0.003 µM
O=C1NC2(CC2)COc2ncc(F)cc2[C@H]2COCCN2c2ccn3ncc1c3n2			Sprague-Dawley rats, female, blood	oral, 20 mg/kg/day, end of treatment, 4-week subacute toxicity	APTT	12.7 ± 1.3 s
CNC(=O)C[C@H](Cc1ccc(F)cc1)NC(=O)[C@@H](Cc1ccc(Cl)cc1Cl)NC(=O)[C@H](N)Cc1ccccc1C#N	Caspase-8 (CASP8, Homo sapiens, UniProt Q14790)	enzyme activity, inhibitor			IC50	> 10 µM
Nc1ccn(C2OC(COP(=O)(O)OP(=O)(O)OP(=O)(O)O)C(O)C2(F)F)c(=O)n1 (stereo not drawn)	pyrG (Escherichia coli, UniProt P0A7E5)	glutamine-dependent CTP formation, inhibitor		together with: 2 mM MgCl2	IC50	11.5 ± 0.5 µM
COc1ccc(S(=O)(=O)Oc2ccc(/C=N/NS(=O)(=O)c3cc(Cl)ccc3Cl)cc2)cc1	CA2	enzyme activity, inhibitor, absorbance			IC50	0.106 µM
CCN(CC)S(=O)(=O)c1ccc2nnn(OCc3cc(-c4ccccc4OC)no3)c2c1	CTSL	enzyme activity, inhibitor, FRET			IC50	> 100 µM
CC[C@H](C)[C@H](NC(=O)[C@@H](NC(=O)[C@H](CC(C)C)NC(=O)[C@H](C)NC(=O)[C@@H]1CCCN1C(=O)[C@H](CC(C)C)NC(=O)[C@@H](NC(=O)[C@@H]1CCCN1C(=O)[C@H](CCCCN)NC(=O)[C@H](CCCNC(=N)N)NC(=O)[C@H](CCCNC(=N)N)NC(=O)[C@H](C)NC(=O)[C@H](C)NC(=O)[C@@H](N)Cc1ccc(O)cc1)C(C)C)[C@@H](C)O)C(=O)N[C@@H](CC(N)=O)C(=O)N1CCC[C@H]1C(=O)O	Mitogen-activated protein kinase 14	enzyme activity, inhibitor, fluorescence		pH 7.4	IC50	14.9 µM
CCCCCCCCCCCCCCCCCC(=O)NC[C@H]1CC[C@H](C(=O)N[C@@H](CCC(=O)NCCCOCCOCCOCCCNC(=O)COCC(=O)N[C@@H](Cc2ccc(O)cc2)C(=O)NC(C)(Cc2ccccc2)C(=O)N[C@@H](CC(C)C)C(=O)N[C@@H](CCCC)C(=O)N[C@@H](CCCNC(=N)N)C(=O)N2CCC[C@H]2C(=O)N[C@@H](CCCNC(=N)NC)C(=O)N[C@@H](CC(N)=O)C(N)=O)C(=O)O)CC1 (stereo partly drawn)	PRLHR (Homo sapiens, UniProt P49683)	inositol phosphate, antagonist			IC50	1.6 µM
O=C(CCc1ccc(Br)cc1)N[C@H]1CCOC1=O	lasR (Pseudomonas aeruginosa, UniProt P25084)	reporter gene, antagonist	Escherichia coli, JLD271 with LasR plasmid	together with: OdDHL 50 nM	IC50	4.14 µM
COc1ccccc1NC(=S)NCCN(C)C	uncharacterized protein (Anopheles gambiae, UniProt Q7QFG0)	enzyme activity, inhibitor, Ellman		pH 7.4, 30 °C, together with: 1 mM acetylthiocholine	IC50	15 µM
O=C(c1cc(Cc2n[nH]c(=O)c3ccccc23)ccc1F)N1CC(CNC2CC2)C1	PARP14 (Homo sapiens, UniProt Q460N5)	enzyme activity, inhibitor			IC50	> 10 µM
Cc1cc(C)nc(Sc2nc3sccn3c2[N+](=O)[O-])n1	CTSL	enzyme activity, inhibitor, FRET			IC50	55.4 µM
Cc1nc(N2CCC(N(C)c3cc(C(=O)NCCN4CCCC4)cnn3)CC2)nc(C)c1CC(C)C	Cytochrome P450 2B6 (CYP2B6, Homo sapiens, UniProt P20813)	enzyme activity, inhibitor			IC50	> 30 µM
CC(C)C[C@H](NC(=O)[C@H](Cc1ccccc1)NC(=O)CNC(=O)[C@H](CCCNC(=N)N)NC(=O)[C@H](CS)NC(=O)[C@H](C)N)C(=O)N[C@@H](CS)C(=O)N[C@@H](CC(N)=O)C(=O)N[C@@H](Cc1ccc(O)cc1)C(N)=O	Pyruvate kinase PKM (PKM, Homo sapiens, UniProt P14618)	enzyme activity, inhibitor, fluorometric		2 h, 37 °C, enzyme 500 nM	IC50	466 µM
O=C(Cn1nnc2ccccc21)Nc1ccccc1-c1cccs1	CTSL	enzyme activity, inhibitor, FRET			IC50	> 100 µM

Repeated from above:
Compound	target or system	assay	test system	setting	endpoint	value
CSCC[C@H](NC(=O)[C@H](CC(C)C)NC(=O)[C@H](C)NC(=O)[C@@H](N)Cc1ccc(O)cc1)C(=O)N[C@@H](CCC(=O)O)C(=O)N[C@@H](CCCNC(=N)N)C(=O)N[C@@H](CCCNC(=N)N)C(=O)N[C@@H](CCCNC(=N)N)C(=O)N[C@@H](CC(C)C)C(=O)N[C@@H](CC(N)=O)C(=O)N[C@@H](CCC(N)=O)C(=O)N[C@@H](CC(C)C)C(=O)N[C@@H](CC(C)C)C(=O)N[C@@H](CC(C)C)C(=O)N1CCC[C@H]1C(=O)N[C@@H](CC(C)C)C(=O)O	Mitogen-activated protein kinase 14	enzyme activity, inhibitor, fluorescence		pH 7.4	IC50	> 200 µM
CCN(CC)S(=O)(=O)c1ccc2nnn(OCc3cc(-c4ccccc4OC)no3)c2c1	CTSL	enzyme activity, inhibitor, FRET			IC50	> 100 µM
CNC(=O)C[C@H](Cc1ccc(F)cc1)NC(=O)[C@@H](Cc1ccc(Cl)cc1Cl)NC(=O)[C@H](N)Cc1ccccc1C#N	Caspase-8 (CASP8, Homo sapiens, UniProt Q14790)	enzyme activity, inhibitor			IC50	> 10 µM
